Results collected from several papers.
A part holds a random share of what one study measured.

Block 1 — method: RNA Bind-n-Seq; form: RNA; sample: in vitro; tested at: not given; reference: input RNA pool; reading: higher = stronger binding
Target: RING finger protein unkempt homolog, zinc fingers 1-6, GST-SBP tag (UNK, Homo sapiens, UniProt Q9C0B0, residues 30-357)
Setting: RNA with constant flanks, human and mouse sites, ends assumed
Residues (chain): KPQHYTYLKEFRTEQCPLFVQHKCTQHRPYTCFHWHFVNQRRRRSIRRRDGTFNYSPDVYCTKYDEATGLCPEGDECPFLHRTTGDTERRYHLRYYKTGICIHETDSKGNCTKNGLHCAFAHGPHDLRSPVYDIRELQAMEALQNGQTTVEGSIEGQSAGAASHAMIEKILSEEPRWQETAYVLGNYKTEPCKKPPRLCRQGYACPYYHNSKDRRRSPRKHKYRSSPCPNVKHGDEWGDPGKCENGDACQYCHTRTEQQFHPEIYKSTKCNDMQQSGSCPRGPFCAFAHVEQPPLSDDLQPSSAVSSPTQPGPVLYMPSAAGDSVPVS
Oligonucleotide | bound/input enrichment
GGGAGUUCUACAGUCCGACGAUCCUGCCUCCGUGCAGAGCGGCCGGGAGGGCUUUGCAGCGGCCGCCGACGCGGCGGGAGGAGGGGGCUGAGGCGGCUUCGGAGUUGGCCGGAGAAGGUGGGCAUUUCUCGCUUUUCCUCCCCCAACAGAGGAUUGAGCAUCA | 0.0918 ratio
GGGAGUUCUACAGUCCGACGAUCGAUUCUACCUCUGCAGUCAAAGAGAAAACAGCAACUUGCCACAGUUCCUCUUCUCCACCAAUAGAUGCAGCAUCCGCAGAGCCCUAUGGCUUCCGUGCCUCAGUGUUAUUCGAUACAAUGCAACAGAGGAUUGAGCAUCA | 0.153 ratio
GGGAGUUCUACAGUCCGACGAUCAGUGCCUAUGAUUACACAAUACCACCUAUGGAGAAAGCUGUUGUGAAAACGGACAUUCAGAUAGCGCUCCCUUCUGGGUGUUAUGGAAGAGUGGCUCCACGGUCAGGCUUGGCUGCAAAACAACAGAGGAUUGAGCAUCA | 0.193 ratio
GGGAGUUCUACAGUCCGACGAUCUCCUUCGCUCCUGUCAUCACUGGCCUGCAAAACCUGGUUGGCACAAAAAGAGUUUCAGAUCCUUCCCAGAAAAAUUCAGGCACAGAUAUGGAACCAAGGACUGUUGAGAUAAACAGGGAGCAACAGAGGAUUGAGCAUCA | 0.153 ratio

Block 2 — target: Sox, HMG box (Pigoraptor chileana); method: Spec-seq; form: double-stranded DNA, one strand shown; sample: in vitro; tested at: not given; setting: whole probe, mean of replicates; reference: not given; reading: lower = stronger binding; all sequences stand within: GAGTCGTCTCGTCAGCAC … CCGTAGAGCACTCAGGTC
Construct (chain): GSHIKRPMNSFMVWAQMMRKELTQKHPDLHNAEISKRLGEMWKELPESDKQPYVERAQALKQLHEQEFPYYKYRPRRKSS
Oligonucleotide | relative binding energy [ln ratio]
CTTCGTT | 0.664
GGATGTT | 0.599
CATGCCA | 0.662
AGCCGTT | 0.415
TTTCGTT | 0.904
CATATTA | 0.133

Block 3 — method: RNA Bind-n-Seq; form: RNA; sample: in vitro; tested at: 200 nM; setting: whole 134-nt RNA, ends assumed; added: 150 mM KCl; reference: input library; reading: higher = stronger binding
Target: Fragile X messenger ribonucleoprotein 1, C-terminal low-complexity region (Fmr1, Mus musculus, UniProt P35922)
All sequences stand within: GGGAGUUCUACAGUCCGACGAUC … UGGAAUUCUCGGGUGUCAAGG
Oligonucleotide | log2 enrichment
AGUCCUGUGCUACACAUCGUAUGUACCGAAUCGGGAAAGGGUUUGGGUUUUUUUGGGAAAGUAUUAUGUUACGCCGUUCGGAUCUGCACU | 0.149
ACCAUGCAGGUGGGCAUCUUUGGGAAGUGGGGCAAGGGGGGGAUAGGGAGGGGGGUAACACAAAGGGAACAGGUGGUCCCAGGUCGUUUC | 0.543
CAAGUCCUGUGCUACACAUCGUAUGUACCGAAUCGGCCCGGCCCGGGGCCCGGGGAAAGUAUUAUGUUACGCCGUUCGGAUCUGCACUUC | -0.167
UGUGCUACACAUCGUAUGUACCGAAUCGGGGAAAAAAAGGGGAAAAAGGGGAAAAAAAGGGGAAAGUAUUAUGUUACGCCGUUCGGAUCU | -0.16
UGGGAGGUGGAUUUUGUUUAUUUUUUUAGCUCAUUUCCAGGGGUGGGAAUUUUUUUUUAAUAUGUGUCAUGAAUAAUGUUGUUUUUGAAA | 0.128
CACAGACAACUCGCACCCACACAGACACAGAGGGAAGGGGUUGGGAUGGGGACAGGGUGCACAGCAGGGCGGGGUAGGACCCCAGCCCCU | 1.37
AAGUCCUGUGCUACACAUCGUAUGUACCGAAUCGGGAAAGGGAGGGAAAAAAAGGGAAAGUAUUAUGUUACGCCGUUCGGAUCUGCACUU | 0.268

Further values, each from its own experiment
Molecule | target | test | test system | setting | how to read | quantity | result
PhoQ, residues 284 288 289 292 302 303 TGYLSA | PhoP, residues 12 14 15 18 19 SPWRL (Escherichia coli, UniProt P23836) | Sort-seq, item: YFP reporter | E. coli | PhoQ-PhoP variant library, added: 10 µM Mg2+ | reference: high Mg2+ state, higher = stronger signaling | fold induction | 5.92

Repeated from above (block 2):
Oligonucleotide | relative binding energy [ln ratio]
GGATGTT | 0.599
CATGCCA | 0.662
